Experimental data from different studies.
Lines come from different studies, so protocols differ. ± gives the spread as reported.

SMILES = O=C1Nc2ccc(F)cc2C1=Cc1c(Cl)[nH]c2c1ccc1ccccc12; target or system = renal cancer subpanel of NCI-60; conditions = 48 h; measurement = TGI; value = 11000 nM
SMILES = O=C(O)c1ccc(/C=C2\SC(=S)N(Cc3cccc(C(F)(F)F)c3)C2=O)cc1; target or system = LPS-primed Nlrp3-/- mouse BMDM; conditions = concentration not given, added: nigericin; measurement = chloride efflux; value = no effect
SMILES = COc1cc(CNC(=O)C[C@H](C)CCC=C(C)C)ccc1OCc1cn(-c2ccccc2F)nn1; target or system = UACC-62 melanoma cells; assay = SRB; conditions = 10 µM, 48 h; measurement = growth percent; value = 69.5%
SMILES = COC(=O)[C@@H]1[C@@H](OC)[C@H](OC(=O)c2cc(OC)c(OC)c(OC)c2)C[C@@H]2CN3CC[C@]4(O[C@@H]3C(=O)[C@@H]21)C(=O)Nc1cc(OC)c(-c2ccc(C(F)(F)F)cc2)cc14; target or system = RS4;11; assay = annexin V/PI flow cytometry; conditions = 5 µM, 72 h; measurement = late apoptotic cells; value = 80.5 ± 10%
SMILES = O=c1c2ccccc2[se]n1CCCCCCn1[se]c2ccccc2c1=O; target or system = H22; assay = cell growth, EZMTT; measurement = maximal inhibition; value = 100%
SMILES = CCCCCCCCCCCCCC[C@@H](O)[C@@H](O)[C@H](CO[C@H]1O[C@H](CO)[C@H](O)[C@H](O)[C@H]1O)NC(=O)CCCCCCCCc1ccccc1; target or system = human Vα24+ NKT cells; conditions = 10 ng/mL, 24 h, HeLa-CD1d co-culture, unit not given; how to read = baseline: α-GalCer; measurement = IFN-γ secretion; value = 1.56 ± 0.11
SMILES = CCCC[C@H](NC(=O)[C@H](Cc1ccccc1)NC(=O)[C@H](Cc1c[nH]cn1)NC(=O)CCNC(=O)[C@@H](NC(=O)[C@H](C)NC(=O)[C@H](Cc1c[nH]c2ccccc12)NC(=O)[C@H](CCC(N)=O)NC(=O)[C@H](N)Cc1ccc(O)cc1)C(C)C)C(N)=O; target or system = NCI-H1299-BRS-3; assay = Western blot; conditions = 100 nM, 2 min; how to read = baseline: untreated; measurement = EGFR tyrosine phosphorylation; value = 4.5 fold
SMILES = CC(C)=CCc1c(O)ccc2c1O[C@H]1c3cc4c(cc3OC[C@@H]21)OC(C)(C)C=C4; target or system = 3T3-L1 adipocytes; assay = activator; conditions = up to 100 µM; measurement = glucose consumption; value = inactive
SMILES = O=Cc1c(O)ccc2ccccc12; target or system = HUVEC; assay = RNA sequencing, item: EMCN; conditions = 75 µM, 24 h; how to read = baseline: DMSO; measurement = log2 fold change; value = -3.4
SMILES = COc1cc(CNC(=O)C[C@H](C)CCC=C(C)C)ccc1OCc1cn(-c2ccc([N+](=O)[O-])cc2)nn1; target or system = K562 leukaemia cells; assay = SRB; conditions = 10 µM, 48 h; measurement = growth percent; value = 44.9%
SMILES = C=C1C(=O)OC2C=C(C)CCC=C(C(=O)OC(C)C(C)(O)C(=O)OC3C(OC(C)=O)C(C(=O)OC)=CCCC(C)=CC4OC(=O)C(=C)C43)CC(OC(=O)C(C)=CC)C12 (stereo not shown); target or system = HeLa; conditions = 3 µM, 24 h; how to read = baseline: untreated; measurement = caspase-9 activity; value = 4.86 fold
SMILES = O=C(c1ccncc1)N1N=C2/C(=C/c3ccc(Br)cc3)CCCC2C1c1ccc(Br)cc1 (stereo not shown); target or system = human erythrocytes; assay = HRBC membrane stabilization; conditions = concentration not given; measurement = membrane protection; value = 82.6%
SMILES = O=C(OCc1cccc(O)c1O)c1ccc(O)c(CO)c1; target or system = p47phox knockout mouse CMEC; assay = Amplex red; conditions = 5 µM, 24 h; measurement = H2O2 production; value = no effect
SMILES = COc1cc2c(OC3OCC(OC)C(OC)C3OC(=O)c3ccc(Br)cc3)c3c(c(-c4ccc5c(c4)OCO5)c2cc1OC)C(=O)OC3 (stereo not shown); target or system = FaDu; assay = RT-qPCR, item: fibronectin; conditions = concentration not given, 36 h; measurement = mRNA level; value = no effect
SMILES = O=C(c1ccc(Oc2ccc(C3CCCCC3)cc2)c([N+](=O)[O-])c1)C(Cl)Cl; target or system = NCI-H1650; assay = cell growth or viability, MTT; conditions = 2.5 µM; measurement = inhibition; value = > 95%
SMILES = CC(=C(c1ccc(O)cc1)c1ccc(Cl)cc1)c1ccc(Cl)cc1; target or system = SNB-75; assay = cell growth or viability, SRB; measurement = GI50; value = 780 nM
SMILES = COc1ccc([C@@H]2CC(=O)c3c(O)cc(O[C@@H]4O[C@H](CO[C@@H]5O[C@@H](C)[C@H](O)[C@@H](O)[C@H]5O)[C@@H](O)[C@H](O)[C@H]4O)cc3O2)cc1O; target or system = A549; assay = cell migration, scratch; conditions = 100 µg/mL, 24 h; measurement = gap closure; value = 4.69 ± 0.63%
SMILES = Cc1cc([C@H](C(=O)N2C[C@H](O)C[C@H]2C(=O)N[C@@H](CC(=O)N2CCC(N3CCC(C#Cc4ccc(C(=O)N[C@H]5C(C)(C)[C@H](Oc6ccc(C#N)c(Cl)c6)C5(C)C)cc4)CC3)CC2)c2ccc(-c3scnc3C)cc2)C(C)C)on1; target or system = MDA-MB-453; assay = flow cytometry; conditions = 72 h; measurement = apoptosis-inducing concentration; value = 0.5 µM
SMILES = COc1ccc2cc3[n+](cc2c1OCc1cn(Cc2ccc(C(C)(C)C)cc2)nn1)CCc1cc2c(cc1-3)OCO2.[Cl-]; target or system = SW1990; assay = cell growth, MTT; conditions = 7.8 µM; measurement = inhibition; value = > 50%
SMILES = CCN(CC)CCSC(=S)N1CCN(C(=O)/C=C/c2coc3ccc(F)cc3c2=O)CC1; target or system = tomato spotted wilt virus; assay = viral infection, half-leaf method; system = Nicotiana glutinosa; conditions = 500 µg/mL; measurement = inactivation effect; value = 70.6%
SMILES = COc1ccc(-c2ocnc2-c2cc(Br)c(OC)c(OC)c2)cc1OCCCC(=O)NO; target or system = HepG2 and Huh-7; assay = cell proliferation; conditions = 0.1 to 1.0 µM; measurement = time to inhibition; value = 12 h
SMILES = COc1cc(CNC(=O)C[C@H](C)CCC=C(C)C)ccc1OCc1cn(-c2cccc(Cl)c2)nn1; target or system = UACC-62 melanoma cells; assay = SRB; conditions = 10 µM, 48 h; measurement = growth percent; value = 108%
SMILES = CCN(CC)CCSC(=S)N1CCN(C(=O)/C=C/c2coc3cc(F)ccc3c2=O)CC1; target or system = tomato spotted wilt virus; assay = viral infection, half-leaf method; system = Nicotiana glutinosa; conditions = 500 µg/mL; measurement = inactivation effect; value = 57.5 ± 6.7%
SMILES = C[C@@H](C(=O)Nc1ccc(Cn2cc(C(F)(F)F)ccc2=O)cc1)N(C)C; target or system = NIH3T3; assay = cell growth or viability, CCK-8; conditions = 500 µM; measurement = inhibition; value = 49.4%
SMILES = COc1ccc(NC(=O)COc2ccc(/C=C/C(C)=N/O)cc2OC)cc1; target or system = SH-SY5Y; assay = flow cytometry; conditions = 10 µM, added: amyloid-β 10 µM; measurement = cells expressing IL-1β; value = 26%
SMILES = O=C1C(=NN=c2[nH]ccs2)c2cc(Cl)ccc2N1CCn1ncc2c(=O)[nH]cnc21; target or system = BALB/3T3 and A498; assay = cell growth; how to read = baseline: IC50 BALB/3T3 over A498; measurement = selectivity ratio; value = 0.79
SMILES = Cc1nc(C)c(C=[N+]([O-])C(C)(C)C)nc1C; target or system = primary rat midbrain neurons; assay = Western blot, item: MEF2D; conditions = 100 µM, added: 20 µM MPP+; measurement = increase in protein level; value = 48.7%
SMILES = NCCCCCO[C@H]1O[C@H](COS(=O)(=O)O)[C@@H](O[C@@H]2O[C@@H](C(=O)O)[C@@H](O[C@H]3O[C@H](COS(=O)(=O)O)[C@@H](O[C@@H]4O[C@@H](C(=O)O)[C@@H](O[C@H]5O[C@H](COS(=O)(=O)O)[C@@H](O[C@@H]6O[C@@H](C(=O)O)[C@@H](O[C@H]7O[C@H](COS(=O)(=O)O)[C@@H](O[C@@H]8O[C@@H](C(=O)O)[C@@H](O)[C@H](O)[C@H]8OS(=O)(=O)O)[C@H](O)[C@H]7NS(=O)(=O)O)[C@H](O)[C@H]6OS(=O)(=O)O)[C@H](O)[C@H]5NS(=O)(=O)O)[C@H](O)[C@H]4OS(=O)(=O)O)[C@H](O)[C@H]3NS(=O)(=O)O)[C@H](O)[C@H]2OS(=O)(=O)O)[C@H](O)[C@H]1NS(=O)(=O)O; target or system = human corneal epithelial cells; assay = flow cytometry; conditions = concentration not given; measurement = cell surface heparan sulfate; value = no effect
SMILES = O=C1Nc2ccccc2/C1=N\Nc1nnc2n1N=C(c1ccc(Cl)cc1)CS2; target or system = SNB-75; assay = cell growth or viability, SRB; conditions = 10 µM; measurement = inhibition; value = 12%
SMILES = COc1cc(CNC(=O)C[C@H](C)CCC=C(C)C)ccc1O; target or system = K562 leukaemia cells; assay = SRB; conditions = 10 µM, 48 h; measurement = growth percent; value = 89.4%
SMILES = C[C@H](CC(=O)C[C@@H](C)[C@H]1C[C@H](O)[C@@]2(C)C3=C(C(=O)C[C@]12C)[C@@]1(C)CCC(=O)C(C)(C)[C@@H]1C[C@@H]3O)C(=O)O; target or system = 3T3-L1 adipocytes; conditions = 100 µg/mL; measurement = glucose consumption; value = 12.4 ± 0.84 mmol/L
SMILES = COc1cc(CNC(=O)C[C@H](C)CCC=C(C)C)ccc1OCc1cn(-c2ccc(Br)cc2)nn1; target or system = NCI-H460; assay = SRB; conditions = 10 µM, 48 h; measurement = growth percent; value = 74.2%
SMILES = CC(=O)OC[C@H]1O[C@@H](Sc2sc(C(=O)c3ccc(Br)cc3)c(N)c2-c2nc3ccccc3s2)[C@H](OC(C)=O)[C@@H](OC(C)=O)[C@H]1OC(C)=O; target or system = SF-295; assay = SRB; conditions = 10 µM, 48 h; how to read = baseline: untreated; measurement = growth; value = 97.1%
SMILES = CC/C=C\C/C=C\C/C=C\C/C=C\C/C=C\C/C=C\CCC(=O)Nc1ccn(C2OC(CO)C(O)C2(F)F)c(=O)n1 (stereo not shown); target or system = SF-295; assay = cell growth or viability, SRB; measurement = GI50; value = 79.1 nM
SMILES = [64Cu+2].c1ccc(CNCc2ccc(CN3CCCN4CCNCCCN(CC4)CC3)cc2)nc1; target or system = CXCR4; system = NOD/SCID mouse, U87 and U87-stb-CXCR4 xenografts, stomach; conditions = iv, 90 min, ex vivo; measurement = tissue uptake; value = 1.86 ± 0.21 %ID/g
SMILES = CC(C)=CCc1cc2c(cc1O)OC[C@H]1c3ccc(O)c(CC=C(C)C)c3O[C@@H]21; target or system = 3T3-L1 adipocytes; assay = activator; conditions = up to 100 µM; measurement = glucose consumption; value = inactive
SMILES = CC(=O)OC[C@H]1O[C@@H](Sc2sc(C(=O)c3ccc(C)cc3)c(N)c2-c2nc3ccccc3s2)[C@H](OC(C)=O)[C@@H](OC(C)=O)[C@@H]1OC(C)=O; target or system = SF-295; assay = SRB; conditions = 10 µM, 48 h; how to read = baseline: untreated; measurement = growth; value = 73.6%

For quick reference, copied from above:
SMILES = O=C(c1ccncc1)N1N=C2/C(=C/c3ccc(Br)cc3)CCCC2C1c1ccc(Br)cc1 (stereo not shown); target or system = human erythrocytes; assay = HRBC membrane stabilization; conditions = concentration not given; measurement = membrane protection; value = 82.6%
SMILES = O=C(OCc1cccc(O)c1O)c1ccc(O)c(CO)c1; target or system = p47phox knockout mouse CMEC; assay = Amplex red; conditions = 5 µM, 24 h; measurement = H2O2 production; value = no effect
